Assay results of several laboratories.
Numbered parts are unrelated; each lists some results of a single study.
UniProt P37173, sequence (whole entry, looked up): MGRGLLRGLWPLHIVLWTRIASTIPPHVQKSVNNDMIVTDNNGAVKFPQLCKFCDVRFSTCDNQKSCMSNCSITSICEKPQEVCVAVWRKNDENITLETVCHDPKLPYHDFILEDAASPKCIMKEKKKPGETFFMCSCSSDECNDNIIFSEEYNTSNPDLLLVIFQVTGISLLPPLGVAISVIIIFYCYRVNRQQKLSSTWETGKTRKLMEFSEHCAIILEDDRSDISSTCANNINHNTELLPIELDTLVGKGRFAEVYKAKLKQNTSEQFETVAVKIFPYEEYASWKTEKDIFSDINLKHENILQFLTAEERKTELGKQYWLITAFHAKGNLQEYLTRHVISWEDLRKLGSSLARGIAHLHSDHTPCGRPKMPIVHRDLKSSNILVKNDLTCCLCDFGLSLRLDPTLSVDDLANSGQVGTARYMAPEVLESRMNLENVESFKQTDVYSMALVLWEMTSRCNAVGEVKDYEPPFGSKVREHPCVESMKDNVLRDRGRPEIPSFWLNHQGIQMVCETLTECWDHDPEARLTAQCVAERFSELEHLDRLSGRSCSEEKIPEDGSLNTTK
UniProt Q9P2K8, sequence (whole entry, unmodified, looked up): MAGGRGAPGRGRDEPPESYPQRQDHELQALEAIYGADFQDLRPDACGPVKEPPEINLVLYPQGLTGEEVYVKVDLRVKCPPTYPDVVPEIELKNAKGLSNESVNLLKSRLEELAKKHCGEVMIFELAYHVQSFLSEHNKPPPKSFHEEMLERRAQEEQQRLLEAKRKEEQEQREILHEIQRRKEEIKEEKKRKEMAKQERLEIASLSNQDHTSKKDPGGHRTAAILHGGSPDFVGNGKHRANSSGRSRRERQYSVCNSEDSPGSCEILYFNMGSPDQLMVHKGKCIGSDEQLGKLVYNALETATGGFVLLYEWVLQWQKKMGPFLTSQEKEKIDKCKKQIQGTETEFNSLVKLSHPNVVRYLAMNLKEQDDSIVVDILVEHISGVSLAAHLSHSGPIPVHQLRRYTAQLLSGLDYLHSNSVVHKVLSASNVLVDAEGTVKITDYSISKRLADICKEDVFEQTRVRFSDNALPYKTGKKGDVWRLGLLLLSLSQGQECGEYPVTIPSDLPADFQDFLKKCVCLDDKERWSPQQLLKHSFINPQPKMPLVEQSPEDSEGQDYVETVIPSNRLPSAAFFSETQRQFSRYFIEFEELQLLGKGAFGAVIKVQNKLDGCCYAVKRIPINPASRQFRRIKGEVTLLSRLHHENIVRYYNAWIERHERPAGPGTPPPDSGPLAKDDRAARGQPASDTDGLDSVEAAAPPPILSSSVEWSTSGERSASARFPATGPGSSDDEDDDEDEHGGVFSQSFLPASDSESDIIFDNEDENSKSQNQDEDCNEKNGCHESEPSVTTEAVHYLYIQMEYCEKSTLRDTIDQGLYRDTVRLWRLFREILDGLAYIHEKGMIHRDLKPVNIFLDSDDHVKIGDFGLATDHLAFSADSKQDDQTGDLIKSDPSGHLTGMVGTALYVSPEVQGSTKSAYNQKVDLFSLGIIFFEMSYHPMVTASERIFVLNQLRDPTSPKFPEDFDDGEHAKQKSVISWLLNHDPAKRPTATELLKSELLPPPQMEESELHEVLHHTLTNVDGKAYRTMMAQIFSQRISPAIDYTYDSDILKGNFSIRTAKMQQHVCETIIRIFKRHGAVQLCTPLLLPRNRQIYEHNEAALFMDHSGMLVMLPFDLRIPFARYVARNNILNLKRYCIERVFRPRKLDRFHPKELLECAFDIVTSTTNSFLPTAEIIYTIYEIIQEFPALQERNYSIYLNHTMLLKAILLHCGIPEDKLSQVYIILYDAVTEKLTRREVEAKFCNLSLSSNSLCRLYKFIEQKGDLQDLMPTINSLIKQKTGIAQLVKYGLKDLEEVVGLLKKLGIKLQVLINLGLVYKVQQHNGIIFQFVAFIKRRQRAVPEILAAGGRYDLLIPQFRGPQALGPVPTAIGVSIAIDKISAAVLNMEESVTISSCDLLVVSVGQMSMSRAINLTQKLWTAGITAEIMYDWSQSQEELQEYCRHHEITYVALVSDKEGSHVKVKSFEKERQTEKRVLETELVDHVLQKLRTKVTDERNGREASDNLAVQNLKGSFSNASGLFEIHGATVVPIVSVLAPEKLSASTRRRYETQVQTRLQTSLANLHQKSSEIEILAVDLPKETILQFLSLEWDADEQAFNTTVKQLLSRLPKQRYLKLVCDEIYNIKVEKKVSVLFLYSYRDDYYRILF
UniProt Q8WTQ7, sequence (whole entry, looked up): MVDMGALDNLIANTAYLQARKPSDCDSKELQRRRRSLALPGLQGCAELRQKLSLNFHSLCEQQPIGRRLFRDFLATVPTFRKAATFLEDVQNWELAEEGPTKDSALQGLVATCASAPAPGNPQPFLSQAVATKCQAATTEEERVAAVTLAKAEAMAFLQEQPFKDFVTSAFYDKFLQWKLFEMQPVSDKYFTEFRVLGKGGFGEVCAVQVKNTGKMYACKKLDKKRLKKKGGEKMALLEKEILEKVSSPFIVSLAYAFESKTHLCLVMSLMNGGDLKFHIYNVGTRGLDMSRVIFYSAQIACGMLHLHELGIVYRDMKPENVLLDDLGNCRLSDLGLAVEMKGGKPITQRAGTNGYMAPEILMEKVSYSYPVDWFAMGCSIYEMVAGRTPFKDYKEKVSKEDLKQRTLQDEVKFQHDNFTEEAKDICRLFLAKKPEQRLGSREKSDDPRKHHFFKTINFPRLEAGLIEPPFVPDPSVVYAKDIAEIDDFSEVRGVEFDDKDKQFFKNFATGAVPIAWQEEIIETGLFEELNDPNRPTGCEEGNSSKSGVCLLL
UniProt Q8NEB9, sequence (whole entry, looked up): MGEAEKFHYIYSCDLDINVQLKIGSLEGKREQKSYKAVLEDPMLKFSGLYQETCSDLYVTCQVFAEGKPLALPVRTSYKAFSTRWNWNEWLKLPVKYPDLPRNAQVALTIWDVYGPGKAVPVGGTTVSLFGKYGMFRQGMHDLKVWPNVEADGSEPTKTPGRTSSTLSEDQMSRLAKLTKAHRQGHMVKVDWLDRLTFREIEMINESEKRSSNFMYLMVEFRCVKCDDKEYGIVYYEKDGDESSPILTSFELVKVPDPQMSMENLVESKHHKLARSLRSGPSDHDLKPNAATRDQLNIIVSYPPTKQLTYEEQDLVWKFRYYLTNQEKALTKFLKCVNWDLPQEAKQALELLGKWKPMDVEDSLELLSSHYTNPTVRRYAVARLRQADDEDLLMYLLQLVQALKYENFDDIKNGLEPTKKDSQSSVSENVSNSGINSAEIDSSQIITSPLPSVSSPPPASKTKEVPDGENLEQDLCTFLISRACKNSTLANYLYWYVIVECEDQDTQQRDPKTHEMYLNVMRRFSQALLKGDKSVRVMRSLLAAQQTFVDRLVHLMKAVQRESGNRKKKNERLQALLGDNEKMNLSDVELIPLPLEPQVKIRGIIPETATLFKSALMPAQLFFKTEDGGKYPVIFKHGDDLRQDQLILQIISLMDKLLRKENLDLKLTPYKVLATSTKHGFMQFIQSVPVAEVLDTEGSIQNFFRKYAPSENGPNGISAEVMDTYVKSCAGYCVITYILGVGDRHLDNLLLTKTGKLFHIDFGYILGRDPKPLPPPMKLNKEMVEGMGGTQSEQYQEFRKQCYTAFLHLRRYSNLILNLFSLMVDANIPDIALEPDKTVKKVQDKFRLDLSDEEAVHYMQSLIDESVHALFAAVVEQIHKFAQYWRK

Set 1 — effect on: enzyme activity; mode: inhibitor; tested at: 0.5 µM; baseline: control
Target: Platelet-derived growth factor receptor beta (PDGFRB, Homo sapiens, UniProt P09619)
UniProt P09619, sequence (whole entry, looked up): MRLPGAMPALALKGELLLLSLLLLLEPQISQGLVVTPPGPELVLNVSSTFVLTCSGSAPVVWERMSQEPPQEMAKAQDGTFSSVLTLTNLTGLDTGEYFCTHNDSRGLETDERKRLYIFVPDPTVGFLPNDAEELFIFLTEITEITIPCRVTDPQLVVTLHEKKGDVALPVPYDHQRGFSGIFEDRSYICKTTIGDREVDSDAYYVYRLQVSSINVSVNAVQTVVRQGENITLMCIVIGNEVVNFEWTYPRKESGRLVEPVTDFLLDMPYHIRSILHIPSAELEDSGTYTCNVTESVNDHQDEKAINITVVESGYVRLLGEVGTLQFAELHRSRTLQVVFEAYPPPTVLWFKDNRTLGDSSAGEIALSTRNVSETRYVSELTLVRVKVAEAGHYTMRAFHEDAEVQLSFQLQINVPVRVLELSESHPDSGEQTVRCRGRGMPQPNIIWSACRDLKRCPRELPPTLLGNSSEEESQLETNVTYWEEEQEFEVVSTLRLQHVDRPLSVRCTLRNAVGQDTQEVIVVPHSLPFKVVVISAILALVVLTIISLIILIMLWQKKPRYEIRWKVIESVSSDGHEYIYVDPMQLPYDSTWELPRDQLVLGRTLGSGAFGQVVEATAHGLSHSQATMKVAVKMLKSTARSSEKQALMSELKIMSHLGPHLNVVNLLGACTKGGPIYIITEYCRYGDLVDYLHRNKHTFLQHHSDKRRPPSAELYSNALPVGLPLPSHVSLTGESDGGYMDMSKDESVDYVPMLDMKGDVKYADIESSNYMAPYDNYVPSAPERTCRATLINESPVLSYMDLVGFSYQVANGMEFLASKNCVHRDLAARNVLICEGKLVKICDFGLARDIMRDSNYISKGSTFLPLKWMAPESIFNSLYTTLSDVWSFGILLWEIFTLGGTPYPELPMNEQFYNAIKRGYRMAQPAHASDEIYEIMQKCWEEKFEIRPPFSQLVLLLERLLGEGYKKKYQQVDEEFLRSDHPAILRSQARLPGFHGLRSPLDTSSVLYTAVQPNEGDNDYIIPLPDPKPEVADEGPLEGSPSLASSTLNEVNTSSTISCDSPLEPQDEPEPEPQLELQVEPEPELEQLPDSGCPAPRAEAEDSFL
For COc1cc2ncnc(Nc3cccc(Cl)c3)c2cc1OC, the remaining activity was 100%.
CCN(CC)C(=O)c1ccc(Nc2nc(OCC3CCCCC3)c3[nH]cnc3n2)cc1 has a remaining activity of 54.6%.
The remaining activity of Nc1cccc(-c2cc3c(Oc4cccc(O)c4)ncnc3[nH]2)c1 is reported as 39.9%.
With Ic1cccc(CSc2nnc(-c3ccncc3)o2)c1 the remaining activity was 97.7%.
With O=C(NC(NC(=S)Nc1ccc(F)c([N+](=O)[O-])c1)C(Cl)(Cl)Cl)C(c1ccccc1)c1ccccc1 (centres unmarked) the remaining activity was 105%.
CN([C@@H](Cc1ccc(OS(=O)(=O)c2cccc3cnccc23)cc1)C(=O)N1CCN(c2ccccc2)CC1)S(=O)(=O)c1cccc2cnccc12 has a remaining activity of 104%.
For CN(C)C[C@H]1CCn2c(c(C3=C(c4cn(C)c5ccccc45)C(=O)NC3=O)c3ccccc32)C1, the remaining activity was 102%.
Cc1cc2ncc(-c3ccccc3)nc2cc1C gave a remaining activity of 89.1%.
With O=C1C(Cl)=C(N2C(=O)CCC2=O)C(=O)c2ccccc21 the remaining activity was 103%.
N#C/C(=C\c1ccc(O)c(O)c1)C(=O)NCc1ccccc1 has a remaining activity of 100%.
The remaining activity of Cc1nc2cc3nc(-c4cccs4)cnc3cc2n1C is reported as 63.3%.
The remaining activity of Cc1cn(-c2cc(NC(=O)c3ccc(C)c(Nc4nccc(-c5cccnc5)n4)c3)cc(C(F)(F)F)c2)cn1 is reported as 28.4%.
With Cn1nc2c3c(cccc31)C(=O)c1ccccc1-2 the remaining activity was 100%.
For O=C(Nc1cccc(Nc2nccc(Nc3cccc(C(F)(F)F)c3)n2)c1)C1CC1, the remaining activity was 101%.
For CCOc1nc(NC(=O)Cc2cc(OC)ccc2OC)cc(N)c1C#N, the remaining activity was 104%.
The remaining activity of N#Cc1c(NC(=O)c2cccc3ccccc23)sc2c1CCCC2 is reported as 98.9%.
With c1ccc(-c2cnc(Nc3ccc(OCCN4CCCC4)cc3)s2)cc1 the remaining activity was 28.5%.
c1ccc(-c2[nH]ncc2-c2ccnc3ccccc23)nc1 has a remaining activity of 106%.

Set 2 — SMILES: O=c1nc(-c2ccccn2)sc2ccccc12; technique: competition with immobilised ligand; tested at: 1 µM
It gave 84% for remaining binding (PHKG1 (Homo sapiens, UniProt Q16816); cell-free assay).
It gave 100% for remaining binding (NTRK1 (Homo sapiens, UniProt P04629); cell-free assay).
The remaining binding was 91% (TIE1 (Homo sapiens, UniProt P35590); cell-free assay).
The remaining binding was 99% (SGK1 (Homo sapiens, UniProt O00141); binding).
It gave 82% for remaining binding (PLK3 (Homo sapiens, UniProt Q9H4B4); binding).
It gave 79% for remaining binding (ACVR1 (Homo sapiens, UniProt Q04771); cell-free assay).
It gave 82% for remaining binding (Tyrosine-protein kinase ABL1, phosphorylated (ABL1, Homo sapiens, UniProt P00519, Q252H); binding).
It gave 77% for remaining binding (PHKG2 (Homo sapiens, UniProt P15735); cell-free assay).
The remaining binding was 98% (PRKCH (Homo sapiens, UniProt P24723); cell-free assay).
For Tyrosine-protein kinase ABL1, non-phosphorylated (ABL1, Homo sapiens, UniProt P00519, F317L); binding: remaining binding read 100%.
The remaining binding was 89% (GRK7 (Homo sapiens, UniProt Q8WTQ7); binding).
For TGFBR2 (Homo sapiens, UniProt P37173); cell-free assay: remaining binding read 100%.
It gave 100% for remaining binding (PRKAA2 (Homo sapiens, UniProt P54646); cell-free assay).
RET (Homo sapiens, UniProt P07949, V804L); binding — remaining binding: 70%.
For Tyrosine-protein kinase JAK2, JH1 (JAK2, Homo sapiens, UniProt O60674); binding: remaining binding read 100%.
eIF-2-alpha kinase GCN2, C-terminal kinase domain (EIF2AK4, Homo sapiens, UniProt Q9P2K8, S808G); binding — remaining binding: 47%.
The remaining binding was 81% (FLT3 (Homo sapiens, UniProt P36888, D835V/ITD); binding).
For PAK4 (Homo sapiens, UniProt O96013); cell-free assay: remaining binding read 86%.
The remaining binding was 100% (WNK4 (Homo sapiens, UniProt Q96J92); binding).

Set 3 — technique: competitive binding panel; tested at: 1 µM; baseline: vehicle
Structure (SMILES): COc1ccc2[nH]c3c4[nH]c5ccc(OC)cc5c4c4c(c3c2c1)C(=O)NC4=O
For ABL1 (Homo sapiens, UniProt P00519, Q252H): remaining binding read 28%.
It gave 4.2% for remaining binding (PAK3 (Homo sapiens, UniProt O75914)).
For WNK1 (Homo sapiens, UniProt Q9H4A3): remaining binding read 91%.
TGFBR2 (Homo sapiens, UniProt P37173) — remaining binding: 100%.
For MAPK15 (Homo sapiens, UniProt Q8TD08); measured: ERK8: remaining binding read 58%.
PIK3C3 (Homo sapiens, UniProt Q8NEB9); measured: VPS34 — remaining binding: 80%.

Set 4 — cell line: Huh-7; tested at: 10 µM; time: 24 h
CO[C@H]1/C=C/O[C@@]2(C)Oc3c(C)c(O)c4c(O)c(c(/C=N/N5CCN(C)CC5)c(O)c4c3C2=O)NC(=O)/C(C)=C\C=C\[C@H](C)[C@H](O)[C@@H](C)[C@@H](O)[C@@H](C)[C@H](OC(C)=O)[C@@H]1C has a viability of 97%.
For OCCN1CCN(CCCN2c3ccccc3Sc3ccc(Cl)cc32)CC1, the viability was 94%.
The viability of CCOC(=O)OC(C)OC(=O)[C@@H]1N2C(=O)[C@@H](NC(=O)[C@H](N)c3ccccc3)[C@H]2SC1(C)C (some centres unmarked) is reported as 96.7%.
Nc1c2ccccc2nc2ccccc12 gave a viability of 63.4%.
The viability of O=C(NCC1CCCCN1)c1cc(OCC(F)(F)F)ccc1OCC(F)(F)F (centres unmarked) is reported as 104%.
With Oc1ccc(O)cc1 the viability was 80.3%.
COc1ccccc1OCC(O)COC(N)=O (centres unmarked) has a viability of 92.1%.
CN(C)CCCC1(c2ccc(F)cc2)OCc2cc(C#N)ccc21 (centres unmarked) gave a viability of 101%.
For CCOC(=O)c1ccc(O)cc1, the viability was 101%.
The viability of CCOC(=O)CCC(=O)O[C@H]1[C@H](O[C@@H]2[C@@H](C)[C@H](O[C@H]3C[C@@](C)(OC)[C@@H](O)[C@H](C)O3)[C@@H](C)C(=O)O[C@H](CC)[C@@](C)(O)[C@H](O)[C@@H](C)C(=O)[C@H](C)C[C@@]2(C)O)O[C@H](C)C[C@@H]1N(C)C is reported as 107%.
COC(=O)[C@H](c1ccccc1Cl)N1CCc2sccc2C1 gave a viability of 101%.
With CN(C)CCOc1ccc(/C(=C(/CCCl)c2ccccc2)c2ccccc2)cc1 the viability was 84.6%.
CN(Cc1cc(Br)cc(Br)c1N)C1CCCCC1 gave a viability of 101%.
The viability of C=CC1=C(C(=O)O)N2C(=O)[C@@H](NC(=O)/C(=N\O)c3csc(N)n3)[C@H]2SC1 is reported as 96.8%.
The viability of C[C@H](CS)C(=O)N1CCC[C@H]1C(=O)O is reported as 96.9%.
CC(=O)Oc1ccccc1C(=O)O gave a viability of 96.2%.
